Measured values gathered from unrelated publications.
Lines come from different studies, so protocols differ. ± marks the error that the study gave.
Cell line: MDA-MB-468

Compound	assay	setting	IC50
CCCCn1c(-c2cccnc2)nc(-c2ccc(C)cc2)c1-c1ccc(C)cc1	cell growth or viability, SRB	48 h	49.2 µM
O=C(/C=C/c1ccc2c(c1)C(=O)N(CCCc1ccccc1)CC2)NO	cell growth, SRB	72 h	1.57 ± 0.96 µM
Cc1c(C)c(C)[c-](C)c1C.[C-]#[O+].[C-]#[O+].[C-]#[O+].[Cl-].[Cl-].[Cl-].[Ir+3].[Re+].c1cnc(-c2ncccn2)nc1	cell growth or viability, MTT	48 h	24.1 µM
O=C(CCCCCCOc1ccc(Nc2ncc(F)c(-c3cn(C4CCCCC4)nn3)n2)cc1)NO	cell growth or viability, SRB	72 h	2.63 µM
CCCn1c(-c2cccnc2)nc(-c2ccc(C)cc2)c1-c1ccc(C)cc1	cell growth or viability, SRB	24 h	97.9 µM
O=C(CCCCCCN1CCN(c2ccc(Nc3ncc(F)c(-c4cn(C5CCCC5)nn4)n3)cc2)CC1)NO	cell growth or viability, SRB	72 h	1.34 µM
N=C(N)NCCC[C@H](NC(=O)[C@H](Cc1c[nH]c2ccccc12)NC(=O)[C@H](CCC(N)=O)NC(=O)[C@H](Cc1c[nH]c2ccccc12)NC(=O)[C@H](CCCNC(=N)N)NC(=O)[C@H](Cc1c[nH]c2ccccc12)NC(=O)[C@H](CCC(N)=O)NC(=O)[C@H](Cc1c[nH]c2ccccc12)NC(=O)[C@@H](N)CCCNC(=N)N)C(N)=O	MTT	up to 48 h	75 µg/mL
CCCCCCCCC=CCCCCCCCC(=O)OC(COC(=O)C(C)c1ccc(CC(C)C)cc1)COP(=O)([O-])OCC[N+](C)(C)C (centres unmarked)	cell growth or viability, SRB	72 h	101 to 107 µM
CN1CCN(c2ccc(Nc3nccc(-c4cn(C5CCCCC5)nn4)n3)cc2)CC1	cell growth or viability, SRB	72 h	> 10 µM
CCCCCCCCCCCCCCn1c(-c2cccnc2)nc(-c2ccc(C)cc2)c1-c1ccc(C)cc1	cell growth or viability, SRB	24 h	> 100 µM
O=S1(=O)CC2CCCCC2CS1 (centres unmarked)	cell growth or viability, MTT	72 h	1.01 µM
[C-]#[O+].[C-]#[O+].[C-]#[O+].[C-]#[O+].[C-]#[O+].[C-]#[O+].[Cl-].[Cl-].[Re+].[Re+].c1cnc(-c2ncccn2)nc1	cell growth or viability, MTT	48 h	105 µM
Nc1ccccc1NC(=O)c1ccc(Nc2nccc(-c3cn(C4CCCCC4)nn3)n2)cc1	cell growth or viability, SRB	72 h	3.27 µM
CCCCCCCCCCn1c(-c2cccnc2)nc(-c2ccc(C)cc2)c1-c1ccc(C)cc1	cell growth or viability, SRB	24 h	> 100 µM

A few entries again:
Compound	assay	setting	IC50
CCCCCCCCCCCCCCn1c(-c2cccnc2)nc(-c2ccc(C)cc2)c1-c1ccc(C)cc1	cell growth or viability, SRB	24 h	> 100 µM
